Assay results from different studies.
Each numbered part is a random draw from the data of one study; scales do not carry over between parts. Substitutions count along the parent as printed.

Set 1
Target: RING finger protein unkempt homolog, zinc fingers 1-6, GST-SBP tag (UNK, Homo sapiens, UniProt Q9C0B0, residues 30-357)
Technique: RNA Bind-n-Seq
Form: RNA
Sample: in vitro
Tested at: not given
Notes: RNA with constant flanks, human-mouse chimeric sites, ends assumed
Reference: input RNA pool
Reading: higher = stronger binding
Target sequence (chain): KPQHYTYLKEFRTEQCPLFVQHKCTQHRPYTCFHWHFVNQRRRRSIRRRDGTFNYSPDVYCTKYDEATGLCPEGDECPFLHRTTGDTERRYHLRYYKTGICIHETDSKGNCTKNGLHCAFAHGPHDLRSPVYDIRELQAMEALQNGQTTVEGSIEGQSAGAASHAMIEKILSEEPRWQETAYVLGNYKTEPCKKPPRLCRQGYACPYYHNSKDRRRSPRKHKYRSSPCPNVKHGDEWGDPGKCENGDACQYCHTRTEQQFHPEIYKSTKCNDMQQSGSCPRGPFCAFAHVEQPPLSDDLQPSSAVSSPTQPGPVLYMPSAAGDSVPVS
Oligonucleotide | bound/input enrichment
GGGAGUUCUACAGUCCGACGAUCGUGCCCUUCUCGCUGCUGCGGAGCCCGCCCAGCUGGGCAUUCCGGGACUGGUACCCUGCACACAGCCGCCUCUUCGAUCAAGCUUUCGGGGUGCCCCGGCUGCCGGAUGAGUGGUCGCAGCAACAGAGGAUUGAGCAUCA | 0.0593 ratio
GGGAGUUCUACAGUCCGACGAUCGUAUUUGUGCGCUCCCCACUCGUGUUUUUAAGUGUAUUUUUAUAAGAUACAUGUAUUUACAAUUGAGCUUUUGUUACUAUAAUACUGAAUGCUACUGGAGAUUAUGAAAAAUGUUUCAAUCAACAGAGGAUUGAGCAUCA | 0.158 ratio
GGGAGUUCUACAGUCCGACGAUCCACAGAGGCACCACCCCCCCCUCCUCCUUUCCACACCUGCAAACUCUUUUACUUGGGCUGAAUAUUUAGUGUAAUUACAUCUCAGCUUUGAGGGCUCCCUGUGGCAAUUCCCGGAUUAAACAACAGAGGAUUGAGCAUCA | 2.36 ratio
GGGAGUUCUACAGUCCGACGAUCAGAGAUAAAGCAUCUAGGAACAUGCGAGGCUCCCGGAUGAAUGGACUGCCUAGCCCCACUCACAGCGCCCACUGUAGCUUCUACCGAACCAGAACCUUGCAGGCACUGAGUAAUGAGAAGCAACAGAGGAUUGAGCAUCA | 0.191 ratio
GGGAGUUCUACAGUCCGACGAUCUAAAUCCUGUGCCAGCACUUCGCUCAUAAAGUUUUAAAUUCUGGACCAAUUGUGUUUGUUUCCUGAUUAUUGUAUCCAAUACUUUGCCUAGUAUGUAACUCACUCUUACUGAUAAUAAAACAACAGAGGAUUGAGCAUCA | 0.502 ratio
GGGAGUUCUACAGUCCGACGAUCGGAUCUUUGGGACUGUUUUACUUAAUUGGUCAUUGAUAUCUCAACAAACAUGGAGAUAAGAUUAGAAAUCUUGACAUCAACAGGUAUUAAGCAGAAAAAACCAUGGCCACGUGUCUCCUGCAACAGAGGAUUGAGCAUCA | 0.154 ratio

Set 2
Target: ABI1, truncated, D143A, DHFR fusion (Arabidopsis thaliana)
Technique: DHFR PCA, deep sequencing
Sample: yeast
Notes: methotrexate growth selection, single substitutions
Added: (+)-ABA 2500 µM
Reference: wild-type fitted maximum
Reading: higher = stronger binding
Starting sequence: PYL1, truncated, DHFR fusion (Arabidopsis thaliana); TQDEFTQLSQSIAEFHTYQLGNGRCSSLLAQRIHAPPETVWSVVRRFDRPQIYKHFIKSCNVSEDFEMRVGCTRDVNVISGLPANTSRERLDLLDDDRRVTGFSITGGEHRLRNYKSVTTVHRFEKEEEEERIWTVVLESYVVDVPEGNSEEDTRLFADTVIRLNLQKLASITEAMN
Variant | relative binding score [%]
G148T | 91.2
E14R | 94.5
I57R | -3.32
S27W | 71.8
T160V | 91.4
D75F | 93.1
T86Q | 89.1

Set 3
Target: RNA binding protein fox-1 homolog 2, RRM domain, GST-SBP tag (RBFOX2, Homo sapiens, UniProt O43251-10, residues 100-194)
Technique: RNA Bind-n-Seq
Form: RNA
Sample: in vitro
Tested at: 365 nM
Notes: natural RNA segment, single round, ends assumed
Reference: no-protein control
Reading: higher = stronger binding
Construct (chain): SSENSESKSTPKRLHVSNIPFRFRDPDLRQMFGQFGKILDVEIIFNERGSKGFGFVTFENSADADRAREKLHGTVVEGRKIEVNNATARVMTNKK
Oligonucleotide | RBNS enrichment (R)
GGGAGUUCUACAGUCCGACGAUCGAUAAACAGUUUAGCCCAUCUCUCCAGAGAGCAAACAUAGGAAUAUGACUCAGGAGCCUCCUAGGGCUUAUCAUCAGCCCUCACACCCGCUUCCCCCUCCAACCCACAGCUGGAAUUCUCGGGUGCCAA | 0.305
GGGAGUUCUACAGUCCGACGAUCUCUGCAGUAGAUUAUAUUUAUCCUAAUCUAUUGAUAUUCUGUUGAUUUGUUUUAAGAGAUAGAACUCUAUUUUUUUGAACUUCCAGAGAAUUGCAUUCAUGGCUUCCACUUGGAAUUCUCGGGUGCCAA | 0.555
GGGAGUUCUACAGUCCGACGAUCUAGGCAUACAAGUGGCUCCUGUUCCACAAUACUAACUACUAUAUUUCUACAUUGUGACUUGUUUUACUUUAAAAGGGGAUAAACAAAUUUAUAGCAACUAUAAAGUAUCAUGGAAUUCUCGGGUGCCAA | 0.608
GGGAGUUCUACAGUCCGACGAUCGCCGCUGCCACUUCACCCUGUGGGAAGUGGCCCCAGCCAUCUCCUCUAGACCAAGGCAGGCAGCCCCGACAUCUGCUUCCUCUAUCGCCCAAUGCAAAAUCGAUGAAAUGUGGAAUUCUCGGGUGCCAA | 0.308
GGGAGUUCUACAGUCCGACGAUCUGAGCCAGGGCCUCUGGCCGGGCAUGCCCCUGCCUGCCCCGCCGUCUUGACCUGCCAGCUUCACUUCCAUCUGUGUUGCUAUUAGGUAUCUCUAACACCAGCACACUUCUUGGAAUUCUCGGGUGCCAA | 0.161
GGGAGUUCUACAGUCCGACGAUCUGGGCCCUGGCUCCAUUAACCUAAAUGUAGCUCCUUAGCGCUAAUCUAGGAACCGCCGCUGCCUGCUGAGGGCCAGGCCCCUCACGCCCUCGCCCCAGGCCCGGGUCCUCUGGAAUUCUCGGGUGCCAA | 0.488
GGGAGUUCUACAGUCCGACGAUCUUUUCCUCUAGCAAGCCAGCUGUGCUGAAGCCCAGUAGAGAUGAAGAGACACCAGCCAGAGAAAACCCCCUCUAGAAGGAAUGUAUUUGUUGCUAAAUUUUGUAGCACUGUGGAAUUCUCGGGUGCCAA | 0.515
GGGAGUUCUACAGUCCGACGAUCAAGCAGCCCCCAGCGAGGGUCUCCUUCGCCUUCAACCUCCUAGUGUCUGUUAGCAUCUUCCUUUUCAUGGGGGGAGGGAAGAUAAAGUGAAUUGCCCAGAGCUGCCUUUUUGGAAUUCUCGGGUGCCAA | 0.691
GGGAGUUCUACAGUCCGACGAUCCAAUCCUCUACCAUCCUGCAGCUGAAAUGGGAACACUGGCUGCCUCUCUAAACCUAAACUCUUGGAUAGAGUUUCUGGGAGGUGGAGGCUGGACUAGAGAACUGGGGGAGUGGAAUUCUCGGGUGCCAA | 0.571

Mixed results
Molecule | target | test | system | setting | how to read | endpoint | value
PhoQ, residues 284 288 289 292 302 303 TTSMTC | PhoP, residues 12 14 15 18 19 IFFTR (Escherichia coli, UniProt P23836) | Sort-seq, refers to: YFP reporter | E. coli | PhoQ-PhoP variant library, added: 10 µM Mg2+ | reference: high Mg2+ state, higher = stronger signaling | fold induction | 4.64

Excerpt of the above (set 3):
Oligonucleotide | RBNS enrichment (R)
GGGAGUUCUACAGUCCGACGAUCUGAGCCAGGGCCUCUGGCCGGGCAUGCCCCUGCCUGCCCCGCCGUCUUGACCUGCCAGCUUCACUUCCAUCUGUGUUGCUAUUAGGUAUCUCUAACACCAGCACACUUCUUGGAAUUCUCGGGUGCCAA | 0.161
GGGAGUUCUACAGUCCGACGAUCUGGGCCCUGGCUCCAUUAACCUAAAUGUAGCUCCUUAGCGCUAAUCUAGGAACCGCCGCUGCCUGCUGAGGGCCAGGCCCCUCACGCCCUCGCCCCAGGCCCGGGUCCUCUGGAAUUCUCGGGUGCCAA | 0.488
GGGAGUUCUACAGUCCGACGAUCUUUUCCUCUAGCAAGCCAGCUGUGCUGAAGCCCAGUAGAGAUGAAGAGACACCAGCCAGAGAAAACCCCCUCUAGAAGGAAUGUAUUUGUUGCUAAAUUUUGUAGCACUGUGGAAUUCUCGGGUGCCAA | 0.515
